Experimental data collected from several papers.
Each line is one published result; not all experiments were run side by side. ± marks the error that the study gave.

With `Cc1c(OCC(F)(F)F)ccnc1C[S+]([O-])c1nc2ccccc2[nH]1` (stereo not drawn) the dose-normalised Cmax was 2.3 µg/mL per mg/kg (human; oral, median).
For `COc1cccc(OC)c1-c1cc(C(=O)NC2(C(=O)O)C3CC4CC(C3)CC2C4)nn1-c1ccc(C(=O)N(C)CCCN(C)CCCN(C)C(=O)CN2CCN(CC(=O)[O-])CCN(CC(=O)[O-])CCN(CC(=O)[O-])CC2)cc1C(C)C.[177Lu+3]` (stereo not drawn), the tissue uptake was 0.089 %ID/g (mouse, HT-29 xenograft, heart; 72 h post injection).
`C=CC(=O)N1CCC(Oc2cc3c(Nc4ccc(Cl)c(Cl)c4F)ncnc3cc2OC)CC1` gave an elimination half-life of 173 ± 16.8 min (Sprague-Dawley rat, male, plasma; oral, 2 mg/kg, 1 weeks pretreatment, together with: Schisandrin B 20 mg/kg daily pretreatment).
For `N#Cc1ccc2c(c1)[C@H]1CCCN(C(=O)c3ccc4[nH]cnc4c3)[C@H]1C2`, “pre-dose plasma concentration” read 268 nmol/L (human, plasma; 20 mg once daily, day 2).
The DT50 sediment of `COc1ccnc(C(=O)NC(CO)C(=O)O)c1O` (racemic) is reported as 52.7 days (Staffordshire loam sediment, aerobic dark; 20 °C).
`CCc1cc(C(=O)NC)c2nccc(N3CCc4c(cc(Cn5ccnc5)cc4-c4cn(C)nc4C(F)(F)F)C3=O)c2c1`: “serum GGT change” -25% (Sprague Dawley rats; oral, 100 mg/kg twice daily, 7 days; relative to: vehicle).
`O=C(O)CCC(=O)O.[2H]C([2H])([2H])Oc1cc(C)c2[nH]ccc2c1CN1CC[C@@H](C2CC2)C[C@H]1c1ccc(C(=O)O)cc1`: “subjects with any TEAE” 33.3% (healthy Chinese subjects; 50 mg, single ascending dose).
For `N#Cc1ccc2c(c1)[C@H]1CCCN(C(=O)c3ccc4[nH]cnc4c3)[C@H]1C2`, “total testosterone level” read 0.9 nmol/L (human females; 160 mg, day 15).
`Cl.[2H]C([2H])([2H])CC(=O)c1cnc(NC(=O)C2CC2)cc1Nc1cccc(-c2ncn(C([2H])([2H])[2H])n2)c1OC`: “elimination rate constant” 3.08e-05 s⁻¹ (geometric mean; human; oral, 20 mg once daily, day 1, fasted, liquid, multiple dose).
The Tmax of `CN1C(=O)[C@@H](NC(=O)c2nnc(Cc3ccccc3)[nH]2)COc2cccnc21` is reported as 4 h (healthy human, fasted, plasma; oral, 400 mg single dose, median).
`COc1ccccc1OCCNCC(O)COc1cccc2[nH]c3ccccc3c12` (stereo not drawn): “nucleation induction time” 0.78 ± 0.12 min (0.2% w/v HPMC; pH 6.5, 37 °C, supersaturation ratio 5).
The oral clearance of `C=CC(=O)Nc1cc(Nc2nccc(-c3cn(C)c4ccccc34)n2)c(OC)cc1N(C)CCN(C)C` is reported as 14.8 L/h (human patients, plasma; oral, geometric mean).
For `COc1cc(/C=C/C(=O)OC2C(O)CC(O)(C(=O)O)CC2O)ccc1O` (stereo not drawn), the CSF concentration was 1.8 nM (human, cerebrospinal fluid; concentration not given, median).
`CCS(=O)(=O)Nc1ccc(Oc2ccc(F)cc2F)c(-c2cn(C)c(=O)c3[nH]ccc23)c1` has a dose-normalised Cmax of 12.3 ng/mL/mg (human, plasma; oral, 1.5 mg, cycle 1 day 8, geometric mean).
For `C[C@@H](Oc1ccc(S(C)(=O)=O)cc1C(=O)N1C[C@@H]2C[C@]2(c2cc(C(F)(F)F)on2)C1)C(F)(F)F`, the half-life was 2.47 days (young humans, plasma; oral, 25 mg once daily, single dose, geometric mean).
Under “incidence of Dysuria”, `NC1(C(=O)N[C@@H](CCO)c2ccc(Cl)cc2)CCN(c2nc[nH]c3nccc2-3)CC1` is recorded as 14.3% (metastatic CRPC patients; 400 mg b.i.d., any grade, treatment-related, together with: enzalutamide 160 mg daily).
`Cc1nc(-c2ccc(OCC(C)C)c(C#N)c2)sc1C(=O)O`: “moderate hepatic event incidence” 2.5% (healthy Chinese subjects; oral, 40 mg, fed).
With `NC[C@@]1(CC(=O)O)[C@@H]2CC[C@H]3C[C@@H]2[C@@H]1C3` the unbound Cmax was 367 ng/mL (human, moderate renal impairment, plasma; geometric mean).
The logP of `CC1(CNC(=O)c2ccc(-c3ccccc3)cc2)NC(=O)NC1=O` (stereo not drawn) is reported as 0.55 (octanol/buffer; pH 11).
The drug concentration of `Nc1nc(NC2CC2)c2ncn([C@H]3C=C[C@@H](CO)C3)c2n1` is reported as 134000 ± 26100 ng/g (Tat- transgenic mouse, striatum; subcutaneous osmotic pump, dose not given, 5 d).
With `CC(Sc1nc2ccccc2[nH]1)C(=O)Nc1ccc(S(N)(=O)=O)cc1` (stereo not drawn) the logP was 1.59 (octanol/buffer; pH 11).
With `COc1ncc(-c2nc3c(n2C(C)C)[C@H](c2ccc(Cl)cc2)N(c2cc(Cl)cn(C)c2=O)C3=O)c(OC)n1` the AUC(0-last) was 1300 ng·h/mL (LC-MS/MS; human, plasma; oral, 15 mg, cycle 1 day 1, low-dose arm).
For `O=C(Nc1cnccc1Cl)N1CCN(Cc2ccc3c(c2)OC(F)(F)O3)CC1`, “injection site pain incidence” read 0% (multiple ascending dose; young women; 100 mg, treatment-emergent adverse events).
For `OC[C@H]1O[C@@H](c2ccc(Cl)c(Cc3ccc(O[C@H]4CCOC4)cc3)c2)[C@H](O)[C@@H](O)[C@@H]1O`, “change in AST” read 1 U/L (Japanese type 1 diabetes patients, blood; 10 mg, day 28; relative to: baseline).
`O=C(OC(C(F)(F)F)C(F)(F)F)N1CCN(Cc2cccc(Oc3ccccc3)c2)CC1` has a Ktrans of 0.0976 min⁻¹ (PET blocking study; rhesus monkey, brain Pons; 0.3 mg/kg, compound pretreatment, together with: [18F]T-401 tracer).
For `O=C1NCCc2nc(OCc3cccc(F)c3)ccc21`, “Irwin test score” read 0.4 (refers to: loss of Escape; Sprague-Dawley rat male; oral, 100 mg/kg, 30 min; direction not given).
`COc1ccc(-c2nnc(SCC(=O)Nc3c(F)cc(F)cc3Br)n2C)cc1` gave a logP of 2.49 (octanol/buffer; pH 11, known kinase inactives set).
Under “participants with adverse event”, `CCCCCCOC(=O)NC(=N)c1ccc(NCc2nc3cc(C(=O)N(CCC(=O)OCC)c4ccccn4)ccc3n2C)cc1` is recorded as 0% (refers to: Headache; human; oral, 75 mg, alone).
`Cn1cc([C@H]2C[C@H]3CSC(N)=N[C@@]3(c3ccc(F)cc3F)CO2)cn1` gave a CSF concentration of 16 nM (male 129/SVE mouse, CSF; subcutaneous, 50 mg/kg, 18 h).
Under “erythroid precursor cells”, `CC(=O)OC[C@H]1OC(OC(C)=O)[C@@H](NC(=O)CN=[N+]=[N-])[C@@H](OC(C)=O)[C@@H]1OC(C)=O` (stereo partly drawn) is recorded as “no effect” (C57BL/6 mouse, bone marrow; dose not given, 2 days; relative to: PBS).
`COc1ccc2[nH]c([S+]([O-])Cc3ncc(C)c(OC)c3C)nc2c1` (stereo not drawn) gave an AUC(0-t) of 878 ± 548 ng·h/mL (healthy Chinese volunteers CYP2C19 IM, plasma; oral, 20 mg single dose, fasted).
With `O=C(O)c1cccc(CSc2nnc(-c3ccncc3)o2)c1` the logP was -0.73 (octanol/buffer; pH 11, known kinase inactives set).
`CC(C)(C(=O)N1CCOc2c(C#N)cncc2C1)C(F)F` — result for “subjects with TEAE”: 12.5% (refers to: general and administration site disorders; human, both sexes; oral, 20 mg twice daily, 14 days, multiple ascending dose).
For `FC(F)(F)c1ccc(CNc2ccc(Cc3c[nH]c4ncc(Cl)cc34)cn2)cn1`, “decreased appetite incidence” read 2% (patients with advanced solid tumours; oral, 1000 mg/day, non-TGCT cohort, grade ≥3).
`C=CC(=O)Nc1cc(Nc2nccc(-c3cn(C)c4ccccc34)n2)c(OC)cc1N(C)CCN(C)C` gave a recovery of 105% (storage stability; human dried blood spot; 2 h, -80 °C, HQC level).
With `O=C(c1cccnc1-c1ccncc1)N1CCC(O)(Cc2ccccc2)CC1` the AUC(0-inf)/dose was 6.54 ng·h/mL/mg (healthy Japanese adults, plasma; oral, 600 mg single dose).
`Cn1cncc1[C@@](N)(c1ccc(Cl)cc1)c1ccc2c(c1)c(-c1cccc(Cl)c1)cc(=O)n2C` has a blood-to-plasma ratio of 0.74 (human).
`COc1cc(OC)c(NC(=O)CSc2nnc(-c3ccncc3)n2-c2ccccc2)cc1Cl` has a logP of 3.11 (octanol/buffer; pH 11, known kinase inactives set).
`CNC(=O)c1ccc(-c2cnc3ncc(Cc4ccc5ncccc5c4)n3n2)cc1F`: “patients with adverse event” 0% (refers to: Dyspepsia, all grades; hepatocellular carcinoma patients; oral, 600 mg twice daily, expansion cohort, any causality).
For `COc1ccc(C(=O)O)cc1OS(=O)(=O)O`, the CSF concentration was 18.8 nM (human, cerebrospinal fluid; concentration not given, mean).
`O=C(Nc1nc2cccc(-c3ccc(CN4CCS(=O)(=O)CC4)cc3)n2n1)C1CC1` — result for “treatment-emergent adverse events”: 8.3% (refers to: musculoskeletal disorders; human rheumatoid arthritis patients; oral, 200 mg once daily, 4 weeks, regardless of relatedness).
For `Cc1ccc(Sc2ccccc2N2CCNCC2)c(C)c1`, “participants with TEAE” read 16.7% (refers to: Dizziness; healthy adult women; oral, 10 mg daily, 12 days).
For `Cc1cccc(CNC(=O)c2cn(CCNC(=O)c3ccccc3Sc3c([N+](=O)[O-])ncn3C)c3cc4c(cc3c2=O)OCO4)n1`, the remaining compound was 78.4% (cynomolgus monkey, whole blood; 1 µM, 2 h).
For `CC(C)=CCC1=C(O)C(=O)c2ccccc2C1=O`, “Epc2 cathodic peak potential” read -0.42 V (cyclic voltammetry; CH2Cl2, Bu4NPF6; 0.1 mM; relative to: Ag/AgCl sat. KOH).
The tissue concentration of `CN(C(=O)n1cnc(-c2ccc[n+]([O-])c2)c1)[C@H]1CC[C@H](O)CC1` is reported as 13.2 ± 0.2 ng/g (rat, hippocampus; oral, 10 mg/kg single dose, 24 h).

For quick reference, copied from above:
`CC(C)(C(=O)N1CCOc2c(C#N)cncc2C1)C(F)F` — result for “subjects with TEAE”: 12.5% (refers to: general and administration site disorders; human, both sexes; oral, 20 mg twice daily, 14 days, multiple ascending dose).
For `FC(F)(F)c1ccc(CNc2ccc(Cc3c[nH]c4ncc(Cl)cc34)cn2)cn1`, “decreased appetite incidence” read 2% (patients with advanced solid tumours; oral, 1000 mg/day, non-TGCT cohort, grade ≥3).
`C=CC(=O)Nc1cc(Nc2nccc(-c3cn(C)c4ccccc34)n2)c(OC)cc1N(C)CCN(C)C` gave a recovery of 105% (storage stability; human dried blood spot; 2 h, -80 °C, HQC level).
With `O=C(c1cccnc1-c1ccncc1)N1CCC(O)(Cc2ccccc2)CC1` the AUC(0-inf)/dose was 6.54 ng·h/mL/mg (healthy Japanese adults, plasma; oral, 600 mg single dose).
